# Assay results collected from several papers.
# Numbers after ± are the reported error.
Substance,assay,test system,conditions,scale,endpoint,result
CC(=O)O[C@@]12CO[C@@H]1C[C@H](O)[C@@]1(C)C(=O)[C@H](O)C3=C(C)[C@@H](OC(=O)[C@H](O)[C@@H](NC(=O)OC(C)(C)C)c4ccccc4)C[C@@](O)([C@@H](OC(=O)c4ccccc4)[C@H]21)C3(C)C,,LNCaP xenograft mice,"maximally tolerated dose × 3, 21 days",,body weight loss,~30%
CC1N=C(c2ccccc2F)c2cc(N3CCCCC3)ccc2NC1=O (stereo not shown),shake flask,PBS,"24 h, pH 7.4",,solubility,> 100 µM
CC(C)C[C@H](NC(=O)[C@H](CCC(=O)O)NC(=O)[C@H](CCC(=O)O)NC(=O)[C@H](CC(=O)O)NC(=O)[C@H](CCC(=O)O)NC(=O)[C@H](CCC(=O)O)NC(=O)[C@H](CCC(=O)O)NC(=O)[C@@H](N)CC(=O)O)C(=O)O,,"rat, plasma","intravenous, 11.0 mg/kg, 90 min",,concentration,166 ng/mL
CC[C@H](C)[C@H](NC(=O)[C@@H](N)CCCNC(=N)N)C(=O)N[C@H](C(=O)N1CCC[C@H]1C(=O)N[C@@H](C)C(N)=O)C(C)C,,"healthy volunteers, both sexes, plasma","intravenous infusion, 3.0 mg/kg, single ascending dose",,Tmax,4 min
eremomycin,,CBA mouse,"intravenous, single bolus in 5% glucose",,LD50,1530 mg/kg
[123I]c1cncc(OC[C@@H]2CCN2)c1,SPECT,"human, temporal lobe","intravenous bolus, 9.1 mCi",reference: plasma,tissue/plasma ratio,9.41
CSCC[C@@H]1NC(=O)[C@H](CC(=O)O)NC(=O)CNC(=O)[C@H](CCCNC(=N)N)NC(=O)[C@H](C)NC(=O)[C@H](CCC(=O)O)NC(=O)[C@H](CCCNC(=N)N)NC(=O)[C@@H]2CSSC[C@@H]3NC(=O)[C@H](CO)NC(=O)[C@H]([C@@H](C)O)NC(=O)[C@@H]4CCCN4C(=O)[C@H](C)NC(=O)[C@H](Cc4c[nH]c5ccccc45)NC(=O)[C@H](CC(=O)O)NC(=O)CNC(=O)[C@H](CCCNC(=N)N)NC(=O)CNC(=O)[C@H](CCC(N)=O)NC(=O)[C@@H]4CCCN4C(=O)[C@@H](NC(=O)CNC(=O)C(C)F)CSSC[C@H](NC(=O)CNC(=O)[C@H](C)NC(=O)[C@H](CC(C)C)NC(=O)[C@H](CSSC[C@@H](C(=O)NCC(N)=O)NC(=O)[C@H]([C@@H](C)O)NC(=O)[C@H](CCCNC(=N)N)NC(=O)[C@@H]4CCCN4C1=O)NC(=O)[C@H](CC(=O)O)NC(=O)[C@H](CO)NC(=O)[C@H](CC(=O)O)NC(=O)[C@H](CCC(N)=O)NC(=O)[C@H](CO)NC3=O)C(=O)N[C@@H](C(C)C)C(=O)N2 (stereo partly shown) [fluorine-18 labelled],,"nude mouse, U-87 MG xenograft, muscle","intravenous, 2.5 h, together with: cyclo(RGDyK) co-injected",,tissue uptake,0.16 ± 0.06 %ID/g
Cc1c(P(=S)(c2ccccc2)c2ccccc2)n2ccccc2[n+]1C/C=C/c1ccccc1,,"mouse, plasma","intraperitoneal, 10 mg/kg, 4 h",,plasma concentration,114 ng/mL
CN[C@@](C)(C[18F])C(=O)O,,"SCID mouse MDA-MB-468 xenograft, muscle","30 min, post injection",,tissue uptake,1.2 ± 0.3 %ID/g
CCCCCCCCCCCCCCCCCC[N+](C)(C)C,substrate depletion,human liver microsomes,"0.5 µM, 0 to 3 h, 37 °C, together with: NADPH",,intrinsic clearance,0.042 mL/h/mg protein
CC(=O)N[C@H](CCCCNC(=O)C(C)F)C(=O)N[C@@H](CS)C(=O)N[C@@H](CS)C(=O)N[C@@H](CCC(=O)O)C(=O)N[C@@H](Cc1c[nH]cn1)C(=O)N[C@H](Cc1ccccc1)C(=O)N[C@@H](CCCNC(=N)N)C(=O)N[C@@H](Cc1c[nH]c2ccccc12)C(=O)N[C@@H](CS)C(=O)N[C@@H](CCCNC(=N)N)C(=O)N1CCC[C@H]1C(=O)N[C@H](C(N)=O)C(C)C (stereo partly shown) [fluorine-18 labelled],,"C57BL/6 mice, male, B16-F10 tumour, muscle","intravenous, 4 h",,tissue uptake,0.06 ± 0.01 %ID/g
CCN1CCN(Cc2ccc(Nc3ncc(F)c(-c4cc(F)c5nc(C)n(C(C)C)c5c4)n3)nc2)CC1,,"chick embryo, chorioallantoic membrane","topical, 5 d, ungrafted",,LD50,> 1 mM
CCCCCCCCCCCC(=O)NCCCC[C@H](NC(=O)[C@@H](NC(=O)[C@@H](NC(=O)[C@H](C)NC(=O)[C@H](C)NC(=O)[C@H](CCCCN)NC(=O)[C@H](CCCCN)NC(=O)[C@H](CS)NC(=O)[C@H](CCCCN)NC(=O)[C@@H]1CCCN1C(=O)[C@H](CC(C)C)NC(=O)[C@@H](NC(=O)[C@H](Cc1c[nH]c2ccccc12)NC(=O)[C@H](CC(C)C)NC(=O)[C@@H](N)CCCCN)C(C)C)C(C)C)C(C)C)C(N)=O,three-compartment model,"Sprague Dawley rat, plasma","intravenous, 2.5 mg",,slow intercompartmental clearance,5 mL/h
CNC(=O)c1ccc(-c2cnn3ccc(C(=O)N(C)c4ccc(Cl)c(C(=O)OC)c4)cc23)cc1,,"beagle dogs, both sexes, plasma","oral, 500 mg/kg/dose, 1000 mg/kg/day, day 1",,Cmax,129 ng/mL
Cc1cnc(C(=O)N[C@H]2CCCCC/C=C\[C@@H]3C[C@@]3(C(=O)NS(=O)(=O)C3CC3)NC(=O)[C@@H]3C[C@@H](Oc4nc5ccccc5c5ccccc45)CN3C2=O)cn1,,healthy volunteers,"oral, dose not given, without digoxin",,AUCtau,5660 ng·h/mL
CCCCCOc1ccc(-c2ccc(-c3ccc(C(=O)N[C@H]4C[C@@H](O)[C@@H](O)NC(=O)[C@@H]5[C@@H](O)[C@@H](C)CN5C(=O)[C@H]([C@@H](C)O)NC(=O)[C@H]([C@H](O)[C@@H](O)c5ccc(O)cc5)NC(=O)[C@@H]5C[C@@H](O)CN5C(=O)[C@H]([C@@H](C)O)NC4=O)cc3)cc2)cc1,population PK model,patients aged sample A to < sample B years,"intravenous, 200 mg loading, 100 mg once daily, median, weight-corrected",,clearance,0.283 mL/min/kg
O.[C-]#[O+].[C-]#[O+].[C-]#[O+].[Re+].c1ccc(-c2ccnc3c2ccc2c(-c4ccccc4)ccnc23)cc1,"RP-HPLC C18 column, measured: free diimine ligand","MeCN:water 40:60, 0.1% TFA",isocratic elution,,capacity factor,> 10
C[N+](C)(C)[C@@H](Cc1c[nH]c(=S)[nH]1)C(=O)[O-],,"rat treated with 1,25-dihydroxyvitamin D3, lungs",intravenous,reference: untreated control rats,decrease in tissue partition coefficient,32.7%
O=C(c1cccc(-c2nc3ccccc3[nH]2)n1)N1CCN(C(=O)c2cccc(-c3nc4ccccc4[nH]3)n2)CC1,functional observational battery,male Sprague Dawley rats,"80 mg/kg/day, day 21, 14 days dosing",,rearing count,22.2
CC(C)[C@@H]1NC(=O)[C@H](C)OC(=O)[C@@H](C(C)C)NC(=O)[C@@H](C(C)C)OC(=O)[C@H](C(C)C)NC(=O)[C@H](C)OC(=O)[C@@H](C(C)C)NC(=O)[C@@H](C(C)C)OC(=O)[C@H](C(C)C)NC(=O)[C@H](C)OC(=O)[C@@H](C(C)C)NC(=O)[C@@H](C(C)C)OC1=O,,n-decane over 0.1 M KCl,,,partition coefficient,3400
O[C@H]1CCCN[C@@H]1CCCn1cnc2c(Cl)c(Cl)ccc21,,"healthy human volunteers, plasma","oral, 100 mg, day 1, multiple ascending dose",,MRT,6.84 h
COc1cccc2c1cc([N+](=O)[O-])c1c(C(=O)O)cc3c(c12)OCO3,,"Sprague-Dawley rat, male, isolated perfused kidney","50 µM, kidney B",,renal clearance,0.00357 mL/min

# Some of these lines once more:
Substance,assay,test system,conditions,scale,endpoint,result
CNC(=O)c1ccc(-c2cnn3ccc(C(=O)N(C)c4ccc(Cl)c(C(=O)OC)c4)cc23)cc1,,"beagle dogs, both sexes, plasma","oral, 500 mg/kg/dose, 1000 mg/kg/day, day 1",,Cmax,129 ng/mL
Cc1cnc(C(=O)N[C@H]2CCCCC/C=C\[C@@H]3C[C@@]3(C(=O)NS(=O)(=O)C3CC3)NC(=O)[C@@H]3C[C@@H](Oc4nc5ccccc5c5ccccc45)CN3C2=O)cn1,,healthy volunteers,"oral, dose not given, without digoxin",,AUCtau,5660 ng·h/mL
CCCCCOc1ccc(-c2ccc(-c3ccc(C(=O)N[C@H]4C[C@@H](O)[C@@H](O)NC(=O)[C@@H]5[C@@H](O)[C@@H](C)CN5C(=O)[C@H]([C@@H](C)O)NC(=O)[C@H]([C@H](O)[C@@H](O)c5ccc(O)cc5)NC(=O)[C@@H]5C[C@@H](O)CN5C(=O)[C@H]([C@@H](C)O)NC4=O)cc3)cc2)cc1,population PK model,patients aged sample A to < sample B years,"intravenous, 200 mg loading, 100 mg once daily, median, weight-corrected",,clearance,0.283 mL/min/kg
